Measured values collected from several papers.
Parts stem from different laboratories: compare values within a part only. Positions count from the first letter of the parent shown.
Chain of UniProt P29317 (whole entry, looked up): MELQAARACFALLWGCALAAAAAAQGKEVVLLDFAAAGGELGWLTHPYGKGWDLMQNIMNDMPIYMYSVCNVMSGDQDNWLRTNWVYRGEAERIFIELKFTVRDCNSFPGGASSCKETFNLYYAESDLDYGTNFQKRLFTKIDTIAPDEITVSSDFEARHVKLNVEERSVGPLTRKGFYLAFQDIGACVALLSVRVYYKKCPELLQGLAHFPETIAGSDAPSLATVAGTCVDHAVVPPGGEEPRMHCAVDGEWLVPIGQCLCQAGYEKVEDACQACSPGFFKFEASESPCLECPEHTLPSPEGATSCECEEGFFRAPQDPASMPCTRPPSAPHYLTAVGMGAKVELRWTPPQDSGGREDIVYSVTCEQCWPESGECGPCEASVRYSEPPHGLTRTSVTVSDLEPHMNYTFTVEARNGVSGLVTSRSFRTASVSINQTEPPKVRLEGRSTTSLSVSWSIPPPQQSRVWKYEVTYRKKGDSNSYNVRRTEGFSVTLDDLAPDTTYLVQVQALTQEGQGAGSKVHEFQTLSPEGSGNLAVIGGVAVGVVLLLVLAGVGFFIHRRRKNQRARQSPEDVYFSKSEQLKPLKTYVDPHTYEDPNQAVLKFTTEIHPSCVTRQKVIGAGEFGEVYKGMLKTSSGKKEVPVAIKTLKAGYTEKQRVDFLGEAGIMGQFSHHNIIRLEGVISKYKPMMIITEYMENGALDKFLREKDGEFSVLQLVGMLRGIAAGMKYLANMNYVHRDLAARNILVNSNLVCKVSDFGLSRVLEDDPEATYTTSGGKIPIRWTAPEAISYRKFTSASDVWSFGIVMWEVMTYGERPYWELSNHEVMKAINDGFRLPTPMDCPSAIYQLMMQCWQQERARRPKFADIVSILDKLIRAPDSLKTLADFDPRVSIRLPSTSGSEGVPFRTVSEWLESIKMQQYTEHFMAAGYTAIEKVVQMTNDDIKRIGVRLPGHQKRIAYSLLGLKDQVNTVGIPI

Series 1 — target: OGT, full length, His-tagged (human); technique: phage display, sequencing; matrix: in vitro; tested at: 1 µg OGT; relative to: input library; direction: higher = stronger binding
Notes: single substitutions, 15-mer displayed peptide, unchanged parent 5.27
Starting sequence: peptide; GDFPVMFMPKYSIIY; partner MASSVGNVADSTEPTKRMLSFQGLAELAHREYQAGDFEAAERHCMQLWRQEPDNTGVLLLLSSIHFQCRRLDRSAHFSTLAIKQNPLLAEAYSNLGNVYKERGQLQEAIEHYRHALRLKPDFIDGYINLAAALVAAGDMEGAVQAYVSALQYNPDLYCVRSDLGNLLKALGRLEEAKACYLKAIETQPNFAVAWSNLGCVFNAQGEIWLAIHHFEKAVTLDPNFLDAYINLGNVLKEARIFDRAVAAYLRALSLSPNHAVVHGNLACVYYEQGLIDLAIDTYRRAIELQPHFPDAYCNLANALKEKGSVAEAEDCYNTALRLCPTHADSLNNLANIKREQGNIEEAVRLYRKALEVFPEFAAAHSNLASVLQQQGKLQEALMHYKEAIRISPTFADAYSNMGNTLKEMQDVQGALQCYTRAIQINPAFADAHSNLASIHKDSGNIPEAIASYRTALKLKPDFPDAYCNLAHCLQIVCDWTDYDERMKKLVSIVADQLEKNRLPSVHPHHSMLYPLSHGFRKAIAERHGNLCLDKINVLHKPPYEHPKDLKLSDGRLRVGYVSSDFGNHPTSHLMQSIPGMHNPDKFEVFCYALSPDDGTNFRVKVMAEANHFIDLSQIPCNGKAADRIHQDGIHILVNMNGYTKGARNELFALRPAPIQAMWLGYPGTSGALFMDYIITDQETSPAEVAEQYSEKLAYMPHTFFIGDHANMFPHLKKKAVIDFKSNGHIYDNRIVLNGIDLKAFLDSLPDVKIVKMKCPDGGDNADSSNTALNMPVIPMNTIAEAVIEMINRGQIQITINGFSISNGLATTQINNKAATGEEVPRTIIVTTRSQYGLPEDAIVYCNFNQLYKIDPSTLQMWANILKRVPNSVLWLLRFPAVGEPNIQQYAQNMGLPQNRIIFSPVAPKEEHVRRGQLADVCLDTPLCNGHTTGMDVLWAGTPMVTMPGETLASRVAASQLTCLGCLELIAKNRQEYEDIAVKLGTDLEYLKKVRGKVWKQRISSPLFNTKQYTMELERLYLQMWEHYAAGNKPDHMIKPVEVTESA
Change | fold enrichment
GDFPVYFMPKYSIIY [M6Y] | 6.13 fold
GDFPVMVMPKYSIIY [F7V] | 1.53 fold
GDFPVMFMEKYSIIY [P9E] | 2.64 fold
GDFPVMFMPKYSIDY [I14D] | 1.62 fold
GDFPVMWMPKYSIIY [F7W] | 1.4 fold
GDFPVMFMPLYSIIY [K10L] | 3.11 fold
GGFPVMFMPKYSIIY [D2G] | 3.97 fold
GDFPVMFMPPYSIIY [K10P] | 0.98 fold

Series 2 — technique: RNA Bind-n-Seq; form: RNA; matrix: in vitro; tested at: not given; notes: RNA with constant flanks, ends assumed; relative to: input RNA pool; direction: higher = stronger binding
Target: RING finger protein unkempt homolog, zinc fingers 1-6, GST-SBP tag (UNK, Homo sapiens, UniProt Q9C0B0, residues 30-357)
Chain of UniProt Q9C0B0 (30-357, looked up): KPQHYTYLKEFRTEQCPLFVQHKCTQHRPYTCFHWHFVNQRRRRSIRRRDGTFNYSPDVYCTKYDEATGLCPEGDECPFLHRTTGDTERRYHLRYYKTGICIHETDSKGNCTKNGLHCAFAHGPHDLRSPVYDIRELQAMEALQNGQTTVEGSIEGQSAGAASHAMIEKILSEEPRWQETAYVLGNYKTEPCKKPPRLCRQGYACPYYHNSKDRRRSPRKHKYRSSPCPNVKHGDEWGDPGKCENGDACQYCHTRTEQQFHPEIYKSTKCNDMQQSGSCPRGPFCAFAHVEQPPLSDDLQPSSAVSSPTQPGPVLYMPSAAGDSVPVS
Constant ends, left off below: GGGAGUUCUACAGUCCGACGAUC … CAACAGAGGAUUGAGCAUCA
Strand | bound/input enrichment
UAGCUCUCCCUGUGCUAACUGCCUGCGCCUUGACAGCCGGGCUGCGCAAAGCAGAGGGAUCCGUUGGGACCUGCCUUGGUGACCCCAUGGCAUCCCCACGAACCAUAACUAUCAUGGCCC | 0.0697 ratio
AUCCAGUACUCCAAUCACAAAGAACUAAAGACAGAUAAUACAUUAAACCAACGUGCGCAAGCCGUUCUUCAAGCUGUGACAGCGGUCCAGACAGCAAAUACACCUCUUAGUGGCACCACA | 0.509 ratio
UUAAACAGUUGAACUGUGUAAAUGUUUCUUGAUCUCUAAGGUAUUAUGUUUGCCUUCUCUCCGUUAUUUCUGGGUUGUCACAAAGCUCAGUAUCAUGGUUUGACAGAAGCAGUUAUGUGA | 0.172 ratio
GGAAGAUAAGAUUUCUGUCUACUAAGUGAUGCUGUGAUACCUUAGGCACUAAAGCAGAGCCCGUAAUGCUUUUUGAGUUUCAUGUUGGUUUAUUUUCACAGAUUGGGGUAACGUGCACUG | 0.272 ratio
CUUGGGGGCCUAAAGAGACCCCCGUCCUGCCUCCUUUCUUUCUCUGUCUCUUCCUUCCUUUCCGUCUUUUUCAUCCUCUUCUCUUUCCACCAACCCUCCUGCAUCCUUGCCUUGCAGCGU | 0.627 ratio
AACGUUGACGUGUUAUAGAUAAGCCUUGUCAUUCUGUAUCAAAAAUCUGUUGUCGUUUUCCCGUAACUUCAAAUUCCAUUACUCCAAAUGGCAUGGUUUUCCGGUUUGUAACCAUAACUA | 0.128 ratio
AAAAAGCAGCUAAGGUUUUUACAAAGGGGAAAUGAGAACAAAAUGCUAGCUACAUCUGUACCGCUGAACUUUUAUAUGGUCCUCGCUGUCCUCUCUCUGCUCUGCUGUCCCCAGUGGUCA | 0.182 ratio
CUCUGUAAACAGUUUGGUUCUUAGUCCUUCUCUUGUACAAAUGAUGUACUUUGAAGACCGUCCGUGUAUAACAGAGUUGUUUGUUUCCUCUUUGAUUUUAAACAGAGAAAAUAAAAGGAG | 0.275 ratio

Series 3 — target: inorganic phosphate, free oxyanion; technique: microfluidic competitive inhibition; matrix: in vitro, cell-free expressed; tested at: not given; direction: lower = stronger binding
Notes: derived from inhibition constants, unchanged parent 615000 nM
Starting sequence: PafA, mature enzyme, eGFP fusion (Elizabethkingia meningoseptica, UniProt Q9KJX5); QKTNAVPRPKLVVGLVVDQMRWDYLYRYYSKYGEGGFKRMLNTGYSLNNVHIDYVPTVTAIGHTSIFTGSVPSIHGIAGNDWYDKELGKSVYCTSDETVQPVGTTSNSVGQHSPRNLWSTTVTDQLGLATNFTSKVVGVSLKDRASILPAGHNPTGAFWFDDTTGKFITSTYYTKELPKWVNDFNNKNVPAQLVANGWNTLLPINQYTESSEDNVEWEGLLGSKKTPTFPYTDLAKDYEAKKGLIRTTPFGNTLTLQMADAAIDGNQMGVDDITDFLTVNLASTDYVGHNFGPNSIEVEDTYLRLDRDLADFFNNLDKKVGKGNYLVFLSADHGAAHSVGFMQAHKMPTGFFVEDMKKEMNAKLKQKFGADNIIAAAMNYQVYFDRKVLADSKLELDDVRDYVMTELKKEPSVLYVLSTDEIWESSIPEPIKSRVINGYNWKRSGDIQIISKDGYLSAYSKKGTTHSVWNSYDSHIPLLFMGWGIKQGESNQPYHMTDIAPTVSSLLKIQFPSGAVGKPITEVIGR
Change | phosphate dissociation constant [µM]
E97V | 645
A377G | 579
P114G | 575
L177G | 494
S113G | 436
M347G | 355
T521G | 518
R246V | 1690
D23V | 275
T171G | 558
V353G | 543
R8G | 437
R144G | > 2050
T120V | 497
N48V | 483
T284V | 766
S471G | 533
D285G | < 2.04
K452G | 468

Mixed results
Molecule | target or system | test | system | setting | scale | quantity | value
nisin | Staphylococcus aureus |  | hemB transposon mutant |  | relative to: wild type | MIC | no effect
Cc1nc(N2CC[C@@H](O)C2)ncc1-c1cc(C(F)(F)F)cc2[nH]ncc12 | Serine/threonine-protein kinase PknB (pknB, Mycobacterium tuberculosis, UniProt P9WI81) | cell-free assay, competition with immobilised ligand |  | 1 µM |  | remaining binding | 89%
lysobactin | Staphylococcus aureus |  | hemB transposon mutant |  | relative to: wild type | MIC | no effect
Cn1cncc1[C@](O)(COc1ccc(C#N)cc1-c1ccc(OC(F)(F)F)cc1)c1ccc(C#N)cc1 | Ephrin type-A receptor 2 (EPHA2, Homo sapiens, UniProt P29317) | cell-free assay, competition with immobilised ligand |  | 1 µM |  | remaining binding | 62%

Repeated from above (series 3):
Change | phosphate dissociation constant [µM]
T120V | 497
D285G | < 2.04
